Measured values pooled from the literature.
Lines come from different studies, so protocols differ. “And” joins repeats or separate records; there may be more than shown. Numbers after ± are the reported error.

With `CCCCCCNc1nc(NC2CCN(C)CC2)c2cc(OC)c(OC)cc2n1` the CC50 was 1.19 µM (THP-1 PMA-differentiated macrophages; CellTiter-Glo; 72 h, host cell cytotoxicity).
`COc1ccccc1OCC(O)CN1CCN(CC(=O)Nc2c(C)cccc2C)CC1` (centres unmarked) — result for “highest concentration without effect”: 50 µM (hiPSC-derived cardiomyocytes; beat period; 30 min, coupled state).
For `C/C(O)=C(\C#N)C(=O)Nc1ccc(C(F)(F)F)cc1`, “free drug concentration” read 260 nM (EL4; culture medium; 1 µM, 48 h).
The Papp of `COc1cc(O)c2nc(C)ccc2c1` is reported as 0.44 ×10⁻⁶ cm/s (RRCK low-efflux MDCK-II cells; 1.5 h, 37 °C, apical to basal).
For `Cc1nnc(C(=O)NC(C)(C)c2nc(C(=O)NCc3ccc(F)cc3)c(O)c(=O)n2C)o1`, the Papp was 5 ×10⁻⁶ cm/s (MDCK low-efflux cells; passive permeability; apical to basolateral).
With `O=C(Nc1ccc([N+](=O)[O-])cc1Cl)c1cc(Cl)ccc1O` the CC50 was over 10 µM (primary human keratinocytes; 20 h).
With `O=C(Nc1ccc(-c2ccccc2)cc1)[C@H]1O[C@H](O[C@@H]2[C@@H](OCc3ccc4ccccc4c3)[C@H](O[C@H]3O[C@H](CNS(=O)(=O)O)[C@@H](OCc4ccc5ccccc5c4)C[C@H]3NS(=O)(=O)O)[C@@H](NS(=O)(=O)O)C[C@H]2NS(=O)(=O)O)[C@H](OCc2ccc3ccccc3c2)[C@@H](NS(=O)(=O)O)[C@@H]1OCc1ccc2ccccc2c1` the viability was 30% (CAG myeloma cells; CCK-8; concentration not given, 48 h).
For `O=C1c2ccccc2C(=O)c2c(NCCc3ccc(O)cc3)ccc(NCCc3ccc(O)cc3)c21`, the CC50 was 2.95 µM (THP-1 PMA-differentiated macrophages; CellTiter-Glo; 72 h, host cell cytotoxicity).
For `CC1(C)CCC(c2ccc(Cl)cc2)=C(CN2CCN(c3ccc(C(=O)NS(=O)(=O)c4ccc(N[C@H](CCN5CCOCC5)CSc5ccccc5)c(S(=O)(=O)C(F)(F)F)c4)cc3)CC2)C1`, “drug secreted with TRL” read 10.7 ± 8.8% (mouse ileal enteroid monolayers; 50 % saturated solubility, 2 h, basolateral fractions 1-10, together with: taurocholate/phosphatidylcholine micelles).
`Cc1nc(NCCCCNc2ccnc3cc(Cl)ccc23)nc(-c2ccccc2[N+](=O)[O-])c1C(=O)OC(C)C`: “minimum cytotoxic concentration” 20 µM (HEL; cell morphology).
For `O=C(O[C@@H]1COC(=O)c2cc(O)c(O)c(O)c2-c2c(cc(O)c(O)c2O)C(=O)O[C@H]1[C@@H]1OC(=O)c2cc(O)c(O)c(O)c2-c2c(O)c(O)c(O)c3c2C(=O)O[C@H]1[C@@H]3O)c1cc(O)c(O)c(O)c1`, the IC50 was over 100 µg/mL (RPE cells; cytotoxicity; 48 h).
Under “minimum cytotoxic concentration”, `CCCCc1cn(C/C=C2\OC(=O)C(OCc3ccccc3)=C2OCc2ccccc2)nn1` is recorded as 100 µM (HEL).
The CC50 of `CC1(C)CC(=O)c2c(C(F)(F)F)nn(-c3ccc(C(N)=O)c(N[C@H]4CC[C@H](O)CC4)c3)c2C1` is reported as over 10 µM (primary human fibroblasts uninfected; live/dead staining; 48 h, capped at 10.00 µM).
With `CC(=O)Nc1cccc(-n2c(=O)n(C3CC3)c(=O)c3c(Nc4ccc(I)cc4F)n(C)c(=O)c(C)c32)c1` the viability fraction was 0.586 (LoVo (KRAS G13D); resazurin; 6.25 nM, 72 h; baseline: DMSO).
`Cc1cn([C@H]2C[C@H](N=[N+]=[N-])[C@@H](CO)O2)c(=O)[nH]c1=O` — result for “extracellular concentration change”: under 10% (Cells, MOLT-4 and HUVEC; HPLC-MS/MS; RPMI-1640, 10% FBS; 100 µM, time course).
`Cc1cn([C@H]2C[C@H](F)[C@@H](CO)O2)c(=O)[nH]c1=O` — result for “minimum cytotoxic concentration”: over 250 µM (HEL).
`O=c1[nH]c(=O)n([C@H]2C[C@H](O)[C@@H](CO)O2)cc1/C=C/Br` — result for “minimum cytotoxic concentration”: over 300 µM (HEL; cell morphology).
The viability of `CCc1c(-c2ccccc2)c(-c2ccccc2)nn1-c1ccccc1-c1cccc(OCC(=O)O)c1` is reported as 89% and 85.1% and 85.4% and 85.7% and 81.5% and 91.8% (mouse bone marrow macrophages; CCK-8; 0.5 µM, 4000 cells; baseline: untreated).
The CC50 of `Cc1nc(N(C)C(=O)Cc2ccc(-c3ccccn3)cc2)sc1S(N)(=O)=O` is reported as over 60 µM (primary human fibroblasts uninfected; live/dead staining; 48 h).
The viability of `Nc1ncnc2c1ncn2C1CCCC1` is reported as over 80% (SW-620; CellTiter-Glo; up to 100 µM, 8 days; baseline: vehicle).
With `CCCCCCCCN=c1ccn(CCCCCCCCCCn2ccc(=NCCCCCCCC)cc2)cc1` the lysis20 was 8 µM (red blood cells; hemolysis).
`O=c1[nH]c(=O)n([C@H]2C[C@H](O)[C@@H](CO)O2)cc1/C=C/Br`: “minimum cytotoxic concentration” over 250 µM (HEL).
`Cc1cc(C)c(CNC(=O)c2cc(Cl)c3c(c2C)O[C@@](C)([C@H]2CC[C@H](N(C)C)CC2)O3)c(=O)[nH]1` gave an efflux ratio of 0.97 (Caco-2; 30 µM, together with: verapamil 100 µM).
For `COc1cccc(-c2n[nH]c(SCc3ccccn3)n2)c1OC`, “binucleated cells with micronuclei” read 1.4% (CHO-WBL; 16 µg/mL, 19 h, without S9).
`Cc1nc(NCCCNc2ccnc3cc(Cl)ccc23)nc(-c2cccc([N+](=O)[O-])c2)c1C(=O)OC(C)C` — result for “minimum cytotoxic concentration”: 20 µM (HEL; cell morphology).
Under spike slope, `CC(C)NCC(O)c1ccc(NS(C)(=O)=O)cc1` (centres unmarked) is recorded as “no effect” (hiPSC-derived cardiomyocytes; 5 µM, decoupled state).
`O=C(O)CNC(=O)c1ncc(-c2cccc(Cl)c2)cc1O` gave a Papp of 16 ×10⁻⁶ cm/s (MDCK low-efflux cells; passive permeability; apical to basolateral).
For `O=C(C[C@@H](C(F)F)n1ccc(F)n1)N1CCC(O)(Cn2cnc3c(cnn3-c3ccc(F)cc3)c2=O)CC1`, the viability was 96.7% and 50% and 72% (CHP-212 parental; SRB; 27.43 nM, 5 d; baseline: untreated).
`Cc1cccc(C)c1N(CC(=O)Nc1ccc(-c2ncon2)cc1)C(=O)C1CCS(=O)(=O)CC1` gave a CC50 of over 10 µM (primary human fibroblasts uninfected; live/dead staining; 48 h, capped at 10.00 µM).
`Cc1cc(C(=O)NC(C)(C)COc2cccc3c2C(N)=NS(=O)(=O)N3)cc(C)n1` gave a cytotoxicity of 22% (human peripheral blood lymphocytes; CBPI, preliminary test; 200 µg/mL, 4 h, together with: rat liver S9; baseline: vehicle control).
For `CCCCCCCC[N+](CCCCCCCC)(CCCCCCCC)CCCCCCCC.[Br-]`, the LDH release was 32.8 mU/mL and 32.9 mU/mL and 27.9 mU/mL (hTERT-RPTEC-OAT1; concentration not given, 96-well plate).
`O=C(Nc1ccc(F)c(Br)c1)c1ccc2c(c1)C(=O)NC2=O`: viability “not toxic” (BV-2; MTT; 1 to 20 µM, 24 h).
Under viability, `O[C@H]1[C@H](OCc2cn(Cc3ccc(F)cc3)nn2)O[C@H]2[C@@H]1OC[C@H]2O` is recorded as “not toxic” (SU-DHL10; cytotoxicity, CellTiter-Glo; up to 30 µM, 72 h).
`Cc1cc(NC(=O)C2=C(O)c3ccccc3S(=O)(=O)N2C)no1` gave a Papp of 23 ×10⁻⁶ cm/s (MDCK low-efflux cells; passive permeability; apical to basolateral).
With `Nc1ccn([C@@H]2O[C@H](CO)[C@@H](O)C2(F)F)c(=O)n1` the CC50 was over 60 µM (primary human fibroblasts uninfected; live/dead staining; 48 h).
`CCCc1nc2c(C)cc(-c3nc4ccccc4n3C)cc2n1Cc1ccc(-c2ccccc2C(=O)O)cc1` has a Papp of 39.9 ×10⁻⁶ cm/s (MDCK low-efflux cells; passive permeability; apical to basolateral).
`C[C@H](NC(=O)[C@]1(Cc2ccccc2)CCN1S(=O)(=O)c1ccc2ccccc2c1)C(N)=O`: “minimum cytotoxic concentration” over 100 µM (HEL; cell morphology).
With `COc1ccc(-c2nc(N3CCOCC3)c3sc(CN(C)c4ncc(C(=O)NO)cn4)cc3n2)cn1` the CC50 was 1.49 µM (primary human fibroblasts uninfected; live/dead staining; 48 h).
`C[C@H](NC(=O)[C@@]1(Cc2ccccc2)CCN1C(=O)OCc1ccccc1)C(=O)NC(C)(C)C` — result for “minimum cytotoxic concentration”: over 100 µM (HEL; cell morphology).
The CC50 of `O=C(CCCCCCC(=O)Nc1ccccc1)NO` is reported as 6.45 µM (NDHF fibroblasts; MTS; 120 h).
For `CC(C)(C)NCC(O)c1cc(O)cc(O)c1` (centres unmarked), the Papp was 1 ×10⁻⁶ cm/s (MDCK low-efflux cells; passive permeability; apical to basolateral).

Some of these lines once more:
For `COc1cccc(-c2n[nH]c(SCc3ccccn3)n2)c1OC`, “binucleated cells with micronuclei” read 1.4% (CHO-WBL; 16 µg/mL, 19 h, without S9).
`Cc1nc(NCCCNc2ccnc3cc(Cl)ccc23)nc(-c2cccc([N+](=O)[O-])c2)c1C(=O)OC(C)C` — result for “minimum cytotoxic concentration”: 20 µM (HEL; cell morphology).
Under spike slope, `CC(C)NCC(O)c1ccc(NS(C)(=O)=O)cc1` (centres unmarked) is recorded as “no effect” (hiPSC-derived cardiomyocytes; 5 µM, decoupled state).
`O=C(O)CNC(=O)c1ncc(-c2cccc(Cl)c2)cc1O` gave a Papp of 16 ×10⁻⁶ cm/s (MDCK low-efflux cells; passive permeability; apical to basolateral).
For `O=C(C[C@@H](C(F)F)n1ccc(F)n1)N1CCC(O)(Cn2cnc3c(cnn3-c3ccc(F)cc3)c2=O)CC1`, the viability was 96.7% and 50% and 72% (CHP-212 parental; SRB; 27.43 nM, 5 d; baseline: untreated).
